Published values gathered from unrelated publications.
A part holds a random share of what one study measured. Changes are numbered by the printed parent chain.

Set 1 — method: aptamer microarray, sandwich; molecule type: DNA with 2'F-ANA; matrix: in vitro; concentration: 200 nM; with: Cy3 exosite-II aptamer, 400 nM; direction: higher = stronger binding; sequence: GGTTGGTGTGGTTGG
Target: Prothrombin, mature alpha-thrombin (F2, Homo sapiens, UniProt P00734)
Setting: whole 15-mer aptamer, many near background
Modification | mean fluorescence intensity [a.u.]
2'F-ANA at 1 4 5 7 9 10 13 14 | 49.1
2'F-ANA at 1 6 7 8 9 12 13 14 | 68.2
2'F-ANA at 3 4 6 8 13 | 468
2'F-ANA at 4 6 7 11 12 13 14 | 102
2'F-ANA at 4 5 6 9 10 13 | 77.2
2'F-ANA at 1 2 4 6 7 10 13 | 46.4
2'F-ANA at 1 2 4 7 9 10 11 12 13 15 | 62.3
2'F-ANA at 1 4 7 8 9 12 14 | 64.8
2'F-ANA at 1 3 4 5 7 8 9 10 11 14 15 | 48
2'F-ANA at 2 7 10 11 13 14 15 | 80.9
2'F-ANA at 4 5 9 12 14 15 | 47.9
2'F-ANA at 4 5 6 11 12 14 | 42.4
2'F-ANA at 2 3 5 6 7 8 13 14 15 | 51.3
2'F-ANA at 2 3 4 6 9 10 11 15 | 201
2'F-ANA at 2 5 6 7 9 13 14 | 47
2'F-ANA at 1 2 3 6 8 9 11 12 13 | 294
2'F-ANA at 3 6 7 12 13 14 | 608

Set 2 — method: RNA Bind-n-Seq; molecule type: RNA; matrix: in vitro; concentration: 365 nM; reference: no-protein control; direction: higher = stronger binding
Target: RNA binding protein fox-1 homolog 2, RRM domain, GST-SBP tag (RBFOX2, Homo sapiens, UniProt O43251-10, residues 100-194)
Setting: natural RNA segment, single round, ends assumed
Constant ends, left off below: GGGAGUUCUACAGUCCGACGAUC … UGGAAUUCUCGGGUGCCAA
Construct (chain): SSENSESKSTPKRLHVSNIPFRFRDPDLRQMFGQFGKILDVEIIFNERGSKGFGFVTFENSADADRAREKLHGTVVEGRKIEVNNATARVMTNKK
Sequence | RBNS enrichment (R)
GGUUCUUGGGCACACUCUAUAGCCAUACUGGACAGGAACCAGGUGCCCCGUGUAGGCAUCGUCGGUCGGUUUGCCGUCAGAGAUGGCGCAUCUCGCUGCAUCCCCCGAGA | 0.45
UAAAUUUUACUCAAUUAUUUUACAAACCAAAUUGAGUUAUUCAAACACAAGCCAGUAUUCUGUGAACAAGUUCCAGAUGAAAAACACAGAAGUUGUGAAUGAAGUUGUAG | 0.54
UGUUCUGGUUACCUGGUUAUAAUAGAGUAUUAAAGCAGUUAUCUUCUGUAUUAUCAGAUCACAAAGGUGGAAUGUUACUAUUUUAUCAGCAAGAUAUUAAAAUGUAUUUC | 0.385
GCCUGGCCCACUUCUCUUUCUCUCCUCCAAAUGAGGAGUUAAAAAUGUUACUAGCAUAGCCCACCCGUGUAAUCCGUUGAAAAGGAACAAAAGGAAAAAAGAAAAGAAAG | 0.45
UAAGAUUGUAAAUCCAUUUCCUGCUUGUGUUCUUAGUGGGCAUGAUUGUGAGUGUGUGUGGGGUGCUCACACGCGUGCCAGUCUUUUUGUACUGUAACUACCUCAUGGUU | 1.09
CCUGGCUAUUUGGGCAAUUGAAUCAUCAUGGACUGUAUAAUGCAAUCAGAUUAUUUUGUUUCUAGACAUCCUUGAAUUACACCAAAGAACAUGAAAUUUAGUUGUGGUUA | 0.659
UUCCCCAGGCCCUGCCUGUGGUUCCUGCCUGGGCCUUGGCUGCUGCUGUGUGAGAGCUGCAUGUGAGCCUGUGACCGUGAGCUGGGGUGAGCUGGGCCGCACCUACCCUG | 0.997
AUGGUUAAAAUCGGUUUGAUAGCACCAUGGGACAUUUUUCUAACAAAAAUAAAUGCAUGAAGAGACAUAGCCUUUUAGUUUUGCUAAUUGUGAAAUGGAAAUGCUUUACA | 2.47
UCCAUAACGUAGCUAAGGCAUCUAAGAGUUUGCUGUUGAUAAUCUUGCUGACCAAAAACUACUGGAGAGUAACACAGGUUAUAUGCCAUCACAAAUACAAUGCUCAUGAA | 1.47
AAACAACGGGAAAGUUCUUGACAGAGUCUGUGUCCGCUCAGUCCCUGCACUUUUCCUUUCCAAAUGCAUCUCGUUGGAUAUGGAAUAGAUCGUAGAUGUUGUAGACUGAG | 1.71
UUUUAACCUGUUAUUGUCCACUAAAGGUCUUAGAUGUCUGGCCAUGUGAGAAUGCAGUAAGGGGGCUGCCAGCUCUCUUCUCCCUCAGACCAUUGUCUCCCCGCUGAACU | 0.507
CAUGAUGGCAAUAUACAAGUGGUAUUGUUAGGUGGUUUAACUUAGAAUAAAAUGAGAAUUCUUCAGUUAUAUUUUGUACUAUGGUUUAGGGCUAUGACUAAUAUUUCAGG | 0.344

Set 3 — method: protein binding microarray; molecule type: double-stranded DNA, one strand shown; matrix: in vitro; concentration: not given; reference: not given; direction: higher = stronger binding
Target: Histone acetyltransferase KAT6A, winged helix 2, GST fusion (KAT6A, Homo sapiens, UniProt Q92794, residues 85-181)
Setting: 8-mer, flanks averaged, mean of 2 arrays, mostly near background
Target sequence (chain): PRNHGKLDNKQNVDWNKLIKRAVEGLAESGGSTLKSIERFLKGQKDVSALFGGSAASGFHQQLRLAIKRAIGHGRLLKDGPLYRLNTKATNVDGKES
Sequence | E-score
CGTTATGA | -0.134
AGTTTTTG | -0.0677
AAATCTCG | 0.0183
GGCTACCC | -0.129
ACCACTTA | -0.0702
GCAAATAC | -0.00589
AATCCGGC | 0.117
ACCCCTCG | 0.0265
AGAAGTGG | -0.24
GATGTAGC | -0.119
CGTGCATC | -0.0455
AGAATGTC | -0.252
AGATACCC | 0.0574
GAGACTAA | -0.0737
GAATAGTA | 0.138
CGCATTTA | 0.0829
ATGACGCC | -0.0153
ACCTCAGT | -0.128
TGCATACA | -0.0558
AGCGAGCA | 0.0794
ACCCATAT | -0.158
GGCCCACA | 0.13

Set 4 — method: competition protein-binding microarray; molecule type: double-stranded DNA, one strand shown; matrix: in vitro; concentration: 2 µM; with: Pho4 competitor, 0.05 µM; direction: higher = stronger binding; constant ends, left off below: … GTCTTGATTCGCTTGACGCTGCTG
Target: Centromere-binding protein 1, full length, His-tagged (CBF1, Saccharomyces cerevisiae, UniProt P17106, residues 1-351)
Chain of UniProt P17106 (whole entry, looked up): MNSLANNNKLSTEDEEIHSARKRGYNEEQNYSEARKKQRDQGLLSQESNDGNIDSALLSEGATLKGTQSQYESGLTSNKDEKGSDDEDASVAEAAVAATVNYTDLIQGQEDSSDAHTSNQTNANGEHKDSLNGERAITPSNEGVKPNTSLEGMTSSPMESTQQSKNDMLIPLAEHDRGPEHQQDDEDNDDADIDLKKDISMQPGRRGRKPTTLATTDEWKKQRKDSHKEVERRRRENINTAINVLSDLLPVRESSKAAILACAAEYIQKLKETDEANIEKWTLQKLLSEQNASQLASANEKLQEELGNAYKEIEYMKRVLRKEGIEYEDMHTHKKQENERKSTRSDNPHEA
Setting: whole 60-bp probe, lowest competitor level
Sequence | fluorescence intensity
CGCCCGTATTCGGGCAACGTGAGCCCAAATACGCCT | 176 a.u.
AAAGCGGTAATTTGGCAAGTGGGTGCAGATATCTAT | 87.3 a.u.
TTAGTAATCTAGAATCACATGGTACCTCTTTCTTCG | 750 a.u.
CGGGGTTAAGTTTTTCACGTGTTGTGCTTGCAGCAG | 841 a.u.
AAATTACTAAGTTTTCACGTGGGTTACCCCGTATGA | 715 a.u.
CAAGCGGAGGAGCAACACGTGGCCCAGCAAAAGGAG | 1370 a.u.
GATGGGTAACCTGTTTCCGTGACGGAAACATTAGAA | 74.5 a.u.
GGGAAACGCCCAGAGCACGTGCTCCTGCCCGACACC | 2160 a.u.
CTGCTTTAGAATTTGTCCGTGACGGGTACTCTAACA | 91.5 a.u.
TGCATTCTTCAATATCAGGTGAAATGTGTCTTGCCT | 133 a.u.
ATATAAACGGATGAAAACGTGTTGATAATTGCATCA | 244 a.u.
ATGCCAATAGAGCCGCACATGTAATTACTGGTTGAC | 94.3 a.u.
GTCCGGTTTCAGGAACACGTGTGGAAAATACAGGGC | 1720 a.u.
CGTCCTAGTGATTGGGAGGTGGGTGCCATGAGGAAG | 85.1 a.u.
TGCGCAACAACTTGAGAAGTGGGTGTATGTCTAGAA | 76 a.u.
GCACTAGTAGAATCGCACGTGTTGGGTTCCCCAAGT | 847 a.u.
GGGTCCACTCTTATACGCGTGGGTATTTTTTCCTTT | 85.8 a.u.
TGCACCAATGTCCTCCACGGGATCGCCACTTTTTTT | 139 a.u.
CCGGCGCTGCTAAATCATGTGAGTTTAGCGCGTACC | 324 a.u.

Set 5 — target: CCND1, cyclin fold, Cln2 fusion (human); method: yeast growth competition, sequencing; matrix: yeast; setting: weak parent motif; reference: not given; direction: higher = stronger binding
Starting sequence: DNAH7 docking peptide (human); HELFQRLDFDNDG; partner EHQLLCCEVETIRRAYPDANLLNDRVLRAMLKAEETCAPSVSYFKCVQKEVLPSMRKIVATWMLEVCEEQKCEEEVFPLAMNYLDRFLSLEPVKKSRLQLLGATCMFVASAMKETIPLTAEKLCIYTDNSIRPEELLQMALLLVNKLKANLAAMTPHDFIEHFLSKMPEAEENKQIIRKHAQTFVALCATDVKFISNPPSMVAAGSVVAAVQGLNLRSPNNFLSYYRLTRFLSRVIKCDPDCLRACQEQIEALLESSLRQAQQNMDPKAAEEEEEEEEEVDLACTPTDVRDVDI
Change | normalised enrichment score
F9A | 0.0687
Q5A | 0.543
E2A | 0.396
N11A | 0.394
R6A | 0.475
H1A | 0.381

Single results of other studies
Substance | target | test | system | setting | how to read | endpoint | result
PhoQ, residues 284 288 289 292 302 303 SQSLSM | PhoP, residues 12 14 15 18 19 LQHIR (Escherichia coli, UniProt P23836) | Sort-seq, refers to: YFP reporter | E. coli | PhoQ-PhoP variant library, with: 10 µM Mg2+ | reference: high Mg2+ state, higher = stronger signaling | fold induction | 0.965

A few entries again (set 2):
Sequence | RBNS enrichment (R)
GGUUCUUGGGCACACUCUAUAGCCAUACUGGACAGGAACCAGGUGCCCCGUGUAGGCAUCGUCGGUCGGUUUGCCGUCAGAGAUGGCGCAUCUCGCUGCAUCCCCCGAGA | 0.45
UAAAUUUUACUCAAUUAUUUUACAAACCAAAUUGAGUUAUUCAAACACAAGCCAGUAUUCUGUGAACAAGUUCCAGAUGAAAAACACAGAAGUUGUGAAUGAAGUUGUAG | 0.54
UGUUCUGGUUACCUGGUUAUAAUAGAGUAUUAAAGCAGUUAUCUUCUGUAUUAUCAGAUCACAAAGGUGGAAUGUUACUAUUUUAUCAGCAAGAUAUUAAAAUGUAUUUC | 0.385
GCCUGGCCCACUUCUCUUUCUCUCCUCCAAAUGAGGAGUUAAAAAUGUUACUAGCAUAGCCCACCCGUGUAAUCCGUUGAAAAGGAACAAAAGGAAAAAAGAAAAGAAAG | 0.45
UAAGAUUGUAAAUCCAUUUCCUGCUUGUGUUCUUAGUGGGCAUGAUUGUGAGUGUGUGUGGGGUGCUCACACGCGUGCCAGUCUUUUUGUACUGUAACUACCUCAUGGUU | 1.09
CCUGGCUAUUUGGGCAAUUGAAUCAUCAUGGACUGUAUAAUGCAAUCAGAUUAUUUUGUUUCUAGACAUCCUUGAAUUACACCAAAGAACAUGAAAUUUAGUUGUGGUUA | 0.659
UUCCCCAGGCCCUGCCUGUGGUUCCUGCCUGGGCCUUGGCUGCUGCUGUGUGAGAGCUGCAUGUGAGCCUGUGACCGUGAGCUGGGGUGAGCUGGGCCGCACCUACCCUG | 0.997
AUGGUUAAAAUCGGUUUGAUAGCACCAUGGGACAUUUUUCUAACAAAAAUAAAUGCAUGAAGAGACAUAGCCUUUUAGUUUUGCUAAUUGUGAAAUGGAAAUGCUUUACA | 2.47
